Published values gathered from unrelated publications.
Compare with care: the assays were run in different laboratories. Values joined by “and” are separate records of one study, mostly repeats; a detail may differ. ± gives the spread as reported.

COc1cnc(Nc2cccc(S(N)(=O)=O)c2)nc1N1CCN(c2ccccc2)C(=O)C1 — percent of control (human FLT3 ITD/F691L; binding, KINOMEscan; 1000 nM; lower = stronger binding): 54%
CC(C)C[C@@H](C=O)NC(=O)[C@H](CC(C)C)NC(=O)[C@H](CC(C)C)NC(=O)OCc1ccccc1 — relative protein level (p38 MAPK, human; degrader, western blot, refers to: p38 over tubulin; HeLa; concentration not given; relative to: untreated control): 1.36
CCCCCCCC(=O)OC[C@H](COP(=O)(O)O[C@@H]1[C@H](O)[C@H](O)[C@@H](OP(=O)(O)O)[C@H](OP(=O)(O)O)[C@H]1O)OC(=O)CCCCCCC — efficacy factor E3 (Kv7.2/Kv7.3(EEE) mutant channel; channel open probability, activator, fitted PIP2 binding model; model 5, efficacy fixed to wild type; relative to: channel without bound PIP2): 0.36
O=C(Nc1c[nH]nc1C(=O)NC1CCNCC1)c1cc(F)cc(F)c1 — remaining binding (human FLT3 ITD F691L; scanMAX; 1 µM; relative to: control): 97%
C=CCNC1=C2C[C@@H](C)C[C@H](OC)[C@H](O)[C@@H](C)/C=C(\C)[C@H](OC(N)=O)[C@@H](OC)/C=C\C=C(/C)C(=O)NC(=CC1=O)C2=O — activity (MyBP-C; MYBPC3 iPSC-derived cardiomyocytes (human); concentration not given, fresh powder retest): inactive
O=C(NC[C@H](O)CO)c1ccncc1Nc1ccc(I)cc1F — kynurenine production (IDO1 human; inhibitor; A-431; 1 µM, added: IFN-γ): 82.8%
Cc1cc(N(C)C)cc2oc(C(=O)NS(=O)(=O)c3ccccc3-c3ccccc3)cc12 — IC50 (estrogen receptor alpha, human; reporter gene; MCF7-MVLN; 24 h): > 20 µM
CC(Nc1nc(N2CCCC2)nc2ccccc12)c1ccccc1 (centres unmarked) — cells with nuclear reporter (transportin-1/2; FUS nuclear import, high content imaging; HeLa Kyoto reporter; 0.158 µM, 2 h): 93.5%
O=C(C#Cc1cn(Cc2ccccc2)c(=O)[nH]c1=O)NCc1ccccc1 — remaining MMP-1 activity (MMP-1; inhibitor, colorimetric; 20 µM): 93 ± 5%
CCS(=O)(=O)c1nc(C2CC2)cc(C(F)(F)F)n1 — cells with nuclear reporter (transportin-1/2; FUS nuclear import, high content imaging; HeLa Kyoto reporter; 0.0158 µM, 2 h): 95.5% and 96.1%
COc1cc(C)c2cc(C(=O)NS(=O)(=O)c3ccc(C)cc3-c3ccccc3)oc2c1 — IC50 (estrogen receptor alpha, human; reporter gene; MCF7-MVLN; 24 h): > 20 µM
Nc1ncnc2c1ncn2[C@@H]1O[C@H](COP(=O)(O)OP(=O)(O)OP(=O)(O)O)[C@@H](O)[C@H]1O — IC50 (human Kir6.2; KATP channel current, inhibitor, inside-out patch clamp; transfected HEK-293T): 61.1 µM
C=CC[C@@]1(C)C(=O)[C@H](C)[C@@H](O)[C@@H](C)CCC/C(CO)=C\C[C@@H](/C(C)=C/c2csc(C)n2)OC(=O)C[C@@H]1O — EC50 (tubulin; tubulin assembly, stimulator; cell-free): 1.3 ± 0.07 µM
Cc1cccc(N2CC(C(=O)O)CC2=O)c1 (centres unmarked) — log fold enrichment (human THEMIS domain; binding, affinity selection mass spectrometry; relative to: other proteins in batch): 0.0023
O=C(O)[C@@H]1CS[C@H](c2ccccc2O)N1C(=O)CCS — IC50 (aminopeptidase W (pig); enzyme activity, inhibitor): 1.6 µM
CC[S+]([O-])c1nc(-c2ccccc2)cc(C(F)(F)F)n1 (centres unmarked) — cells with nuclear reporter (transportin-1/2; FUS nuclear import, high content imaging; HeLa Kyoto reporter; 50 µM, 2 h): 99.1% and 97.1%
Oc1ccccc1-c1n[nH]cc1-c1ccnc2ccccc12 — log2 fold change (SKY1 (Candida albicans); kinase binding, MIB/MS competition; Candida albicans lysate; 10 µM; relative to: DMSO): 0.4
